Results collected from several papers.
Each numbered part is a random draw from the data of one study; scales do not carry over between parts. Values joined by “and” are separate records of one study, mostly repeats; a detail may differ.
Sequence of UniProt P51817 (whole entry, looked up): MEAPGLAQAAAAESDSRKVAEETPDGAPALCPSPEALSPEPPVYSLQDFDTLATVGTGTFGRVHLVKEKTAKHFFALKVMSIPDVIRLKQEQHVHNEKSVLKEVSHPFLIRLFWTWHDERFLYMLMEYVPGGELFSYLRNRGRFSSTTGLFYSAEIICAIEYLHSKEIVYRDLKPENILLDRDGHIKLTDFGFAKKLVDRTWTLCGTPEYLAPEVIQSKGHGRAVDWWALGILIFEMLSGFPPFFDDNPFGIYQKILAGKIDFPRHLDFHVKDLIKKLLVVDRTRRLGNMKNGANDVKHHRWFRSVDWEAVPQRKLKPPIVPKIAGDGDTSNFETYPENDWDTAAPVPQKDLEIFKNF

Sample 1
SMILES: NC/C(=C\F)COc1cccc(Cn2c(=S)[nH]c(=O)c3[nH]ccc32)c1
Read-out: enzyme activity
Mode: inhibitor
Method: fluorescence
MPO: Myeloperoxidase (MPO, Homo sapiens, UniProt P05164)
Sequence of UniProt P05164 (whole entry, looked up): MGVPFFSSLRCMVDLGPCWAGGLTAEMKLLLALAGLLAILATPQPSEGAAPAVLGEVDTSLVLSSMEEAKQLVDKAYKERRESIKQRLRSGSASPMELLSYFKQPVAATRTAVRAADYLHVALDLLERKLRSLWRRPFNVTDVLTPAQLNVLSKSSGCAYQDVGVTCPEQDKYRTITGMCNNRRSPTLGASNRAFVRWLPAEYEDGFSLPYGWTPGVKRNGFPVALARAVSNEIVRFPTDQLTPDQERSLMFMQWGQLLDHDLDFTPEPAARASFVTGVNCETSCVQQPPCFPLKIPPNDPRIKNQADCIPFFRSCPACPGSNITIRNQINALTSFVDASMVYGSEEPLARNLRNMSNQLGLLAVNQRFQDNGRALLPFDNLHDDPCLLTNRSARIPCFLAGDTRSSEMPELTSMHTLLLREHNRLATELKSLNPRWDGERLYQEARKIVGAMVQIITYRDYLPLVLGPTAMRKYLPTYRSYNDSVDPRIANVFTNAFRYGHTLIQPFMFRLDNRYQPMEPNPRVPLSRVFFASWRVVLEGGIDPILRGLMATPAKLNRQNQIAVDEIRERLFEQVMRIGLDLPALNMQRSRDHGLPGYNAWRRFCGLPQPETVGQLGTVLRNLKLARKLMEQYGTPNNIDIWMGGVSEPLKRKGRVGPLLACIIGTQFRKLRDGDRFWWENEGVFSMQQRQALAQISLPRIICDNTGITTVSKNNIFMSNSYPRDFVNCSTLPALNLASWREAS
AOC3: Amine oxidase [copper-containing] 3 (AOC3, Homo sapiens, UniProt Q16853)
Sequence of UniProt Q16853 (whole entry, looked up): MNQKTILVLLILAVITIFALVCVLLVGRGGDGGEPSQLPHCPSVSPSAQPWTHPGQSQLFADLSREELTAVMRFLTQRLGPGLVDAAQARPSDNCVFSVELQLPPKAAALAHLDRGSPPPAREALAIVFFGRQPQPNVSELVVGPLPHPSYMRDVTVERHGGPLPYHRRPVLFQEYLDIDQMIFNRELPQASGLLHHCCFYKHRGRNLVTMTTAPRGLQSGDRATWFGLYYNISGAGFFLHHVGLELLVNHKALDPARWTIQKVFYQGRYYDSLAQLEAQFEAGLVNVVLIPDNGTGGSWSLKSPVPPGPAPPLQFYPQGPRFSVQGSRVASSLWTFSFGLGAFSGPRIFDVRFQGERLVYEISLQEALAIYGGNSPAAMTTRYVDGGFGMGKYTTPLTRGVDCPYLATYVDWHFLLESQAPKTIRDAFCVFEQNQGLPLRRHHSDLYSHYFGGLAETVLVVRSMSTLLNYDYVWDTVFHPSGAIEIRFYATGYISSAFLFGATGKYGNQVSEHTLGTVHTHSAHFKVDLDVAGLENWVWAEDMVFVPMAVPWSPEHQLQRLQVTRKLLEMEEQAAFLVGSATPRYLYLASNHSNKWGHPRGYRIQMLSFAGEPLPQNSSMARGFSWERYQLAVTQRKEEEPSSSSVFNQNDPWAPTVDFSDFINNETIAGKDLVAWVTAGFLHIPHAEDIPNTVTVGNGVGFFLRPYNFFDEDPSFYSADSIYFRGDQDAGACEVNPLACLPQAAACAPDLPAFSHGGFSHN
For MPO; 800 pM: inhibition read -0.968% and 5.13% and 5.82%.
AOC3; 13.7 nM — inhibition: 55.6% and 66.9% and 70.3% and 41.3% and 60.4% and 63%.
The inhibition was 100% and 99.2% and 101% and 99.9% (AOC3; 10 µM).
For MPO; 15 µM: inhibition read 99.6% and 99.7% and 100%.
MPO; 13.7 nM — inhibition: 53.3% and 55.8% and 51.3%.
MPO; 30 µM — inhibition: 100% and 99.8%.
It gave 99.6% and 100% for inhibition (MPO; 10 µM).
MPO; 0.1235 µM — inhibition: 91.8% and 94.3% and 94.4%.

Sample 2
Structure (SMILES): Cc1ncsc1-c1ccc(C(CO)NC(=O)C2CC(O)CN2C(=O)C(C(C)C)n2cc(-c3ccc(COc4c(-c5c(C)c(F)cc6[nH]ncc56)c(C5CC5)cc5c(N6CC7CC6CN7)nc(OC6CCOCC6)nc45)cc3)nn2)cc1 (stereo not drawn)
Method: qRT-PCR
Host: mouse, PK-59 xenograft
Sample: tumour
Setting: unit not given
The mRNA level was 0.0141 and 0.0203 and 0.0133 (refers to: ETV4; intravenous, 30 mg/kg, 2 h; baseline: vehicle, same time point).
It gave 0.0162 and 0.00894 and 0.0118 for mRNA level (refers to: DUSP6; intravenous, 30 mg/kg, 6 h; baseline: vehicle, same time point).
The mRNA level was 0.0194 and 0.0257 and 0.0203 (refers to: MYC; intravenous, 30 mg/kg, 24 h; baseline: vehicle, same time point).
refers to: DUSP4; 30 mg/kg, 144 h; baseline: vehicle — mRNA level: 0.489 and 0.427.
refers to: MYC; 30 mg/kg, 72 h; baseline: vehicle — mRNA level: 0.641 and 0.367 and 0.449.
refers to: ETV4; intravenous, 10 mg/kg, 2 h; baseline: vehicle, same time point — mRNA level: 0.0233 and 0.0219 and 0.0123.
For refers to: MYC; intravenous, 10 mg/kg, 48 h; baseline: vehicle, same time point: mRNA level read 0.0361 and 0.0336 and 0.0355.

Sample 3
SMILES: CCN1/C(=C/C=C2\CCCC(/C=C/C3=[N+](CC)c4ccccc4C3(C)C)=C2NCCCCCCCCN2CCC(Nc3nc4ccccc4n3Cc3ccc(F)cc3)CC2)C(C)(C)c2ccccc21
Cell line: U-87 MG
Concentration: concentration not given
Baseline: DMSO
refers to: NUDT6 mRNA — “log2 fold change”: -1.33.
For refers to: SMOX mRNA: “log2 fold change” read 0.952.
It gave 0.9 for “log2 fold change” (refers to: ZNF317 mRNA).
The “log2 fold change” was 1.27 (refers to: SLC12A6 mRNA).
It gave -1.65 for “log2 fold change” (refers to: PODNL1 mRNA).
refers to: CAV2 mRNA — “log2 fold change”: -1.05.
For refers to: NUDT4 mRNA: “log2 fold change” read 0.889.
It gave 1.54 for “log2 fold change” (refers to: IRF1 mRNA).
For refers to: SH2D3C mRNA: “log2 fold change” read 2.73.
It gave 0.895 for “log2 fold change” (refers to: UCHL1 mRNA).
refers to: WIPI1 mRNA — “log2 fold change”: 1.71.

Sample 4
SMILES: Cc1ccc(O)c(C)c1-c1cnc2[nH]c(-c3cnc(N4CCC(CCN5CCN(c6ccc(NC7CCC(=O)NC7=O)cc6F)CC5)CC4)nc3)cc2c1C#N (stereo not drawn)
Target: Membrane-associated tyrosine- and threonine-specific cdc2-inhibitory kinase (PKMYT1, Homo sapiens, UniProt Q99640)
Construct (Q99640 1-499): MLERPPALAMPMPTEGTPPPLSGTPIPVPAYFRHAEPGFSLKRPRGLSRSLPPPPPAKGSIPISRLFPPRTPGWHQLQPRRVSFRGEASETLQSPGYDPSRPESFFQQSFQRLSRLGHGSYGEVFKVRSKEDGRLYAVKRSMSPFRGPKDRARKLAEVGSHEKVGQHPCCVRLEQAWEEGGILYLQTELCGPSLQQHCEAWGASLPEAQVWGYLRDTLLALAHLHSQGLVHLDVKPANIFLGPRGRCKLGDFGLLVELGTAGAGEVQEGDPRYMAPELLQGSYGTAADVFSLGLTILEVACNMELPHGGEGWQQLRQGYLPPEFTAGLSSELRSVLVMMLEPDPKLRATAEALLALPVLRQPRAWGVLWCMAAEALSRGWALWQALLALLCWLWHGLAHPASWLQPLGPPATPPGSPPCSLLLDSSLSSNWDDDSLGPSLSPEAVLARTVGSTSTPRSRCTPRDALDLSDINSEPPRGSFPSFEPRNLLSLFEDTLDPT
The inhibition was -5.08% (cell-free assay, inhibitor, TR-FRET; 51 pM).
0.000152 µM — inhibition: -4.59%.
For cell-free assay, inhibitor, TR-FRET; 4.12 nM: inhibition read 58.1%.
It gave 96.2% for inhibition (cell-free assay, inhibitor, TR-FRET; 37.04 nM).
For 0.1111 µM: inhibition read 98.7%.
The inhibition was 100% (cell-free assay, inhibitor, TR-FRET; 0.3333 µM).
It gave 0.4% for inhibition (cell-free assay, inhibitor, TR-FRET; 460 pM).
The inhibition was 89.7% (0.01235 µM).
For cell-free assay, inhibitor, TR-FRET; 152 pM: inhibition read -4.42%.
The inhibition was 89.2% (cell-free assay, inhibitor, TR-FRET; 12.35 nM).
For 0.3333 µM: inhibition read 98.8%.
5.1e-05 µM — inhibition: -6.97%.
1 µM — inhibition: 99.4%.

Sample 5
Structure (SMILES): CC[C@@]1(c2ccccc2)C2=C(CC(C)(C)CC2=O)Nc2n[nH]cc21
Concentration: 1 µM
LATS2 (Homo sapiens, UniProt Q9NRM7); binding, competition with immobilised ligand — remaining binding: 100%.
It gave 100% for remaining binding (MYLK (Homo sapiens, UniProt Q15746); binding, competition with immobilised ligand).
It gave 95% for remaining binding (MAP3K3 (Homo sapiens, UniProt Q99759); kinase binding, KINOMEscan; baseline: DMSO control).
The remaining binding was 61% (Tyrosine-protein kinase ABL1, non-phosphorylated (ABL1, Homo sapiens, UniProt P00519); kinase binding, KINOMEscan; baseline: DMSO control).
For AKT3 (Homo sapiens, UniProt Q9Y243); binding, competition with immobilised ligand: remaining binding read 100%.
SNRK (Homo sapiens, UniProt Q9NRH2); kinase binding, KINOMEscan; baseline: DMSO control — remaining binding: 86%.
BRAF (Homo sapiens, UniProt P15056, V600E); kinase binding, KINOMEscan; baseline: DMSO control — remaining binding: 100%.
The remaining binding was 96% (MAK (Homo sapiens, UniProt P20794); binding, competition with immobilised ligand).
For MELK (Homo sapiens, UniProt Q14680); binding, competition with immobilised ligand: remaining binding read 96%.
SRMS (Homo sapiens, UniProt Q9H3Y6); binding, competition with immobilised ligand — remaining binding: 100%.
It gave 100% for remaining binding (PIP4K2B (Homo sapiens, UniProt P78356); kinase binding, KINOMEscan; baseline: DMSO control).
ROS1 (Homo sapiens, UniProt P08922); kinase binding, KINOMEscan; baseline: DMSO control — remaining binding: 100%.
The remaining binding was 100% (RET (Homo sapiens, UniProt P07949, M918T); binding, competition with immobilised ligand).
The remaining binding was 77% (LRRK2 (Homo sapiens, UniProt Q5S007, G2019S); kinase binding, KINOMEscan; baseline: DMSO control).
It gave 81% for remaining binding (Tyrosine-protein kinase ABL1, phosphorylated (ABL1, Homo sapiens, UniProt P00519, H396P); kinase binding, KINOMEscan; baseline: DMSO control).
It gave 100% for remaining binding (PRKCD (Homo sapiens, UniProt Q05655); binding, competition with immobilised ligand).
For CDKL1 (Homo sapiens, UniProt Q00532); binding, competition with immobilised ligand: remaining binding read 73%.
For Tyrosine-protein kinase ABL1, phosphorylated (ABL1, Homo sapiens, UniProt P00519, Y253F); kinase binding, KINOMEscan; baseline: DMSO control: remaining binding read 75%.
The remaining binding was 92% (BRSK1 (Homo sapiens, UniProt Q8TDC3); binding, competition with immobilised ligand).
For PRKX (Homo sapiens, UniProt P51817); binding, competition with immobilised ligand: remaining binding read 86%.
It gave 100% for remaining binding (EPHB3 (Homo sapiens, UniProt P54753); kinase binding, KINOMEscan; baseline: DMSO control).
The remaining binding was 85% (eIF-2-alpha kinase GCN2, C-terminal kinase domain (EIF2AK4, Homo sapiens, UniProt Q9P2K8, S808G); binding, competition with immobilised ligand).

Sample 6
Target: Cyclin-dependent kinase 12, with cyclin K (CDK12, Homo sapiens, UniProt Q9NYV4)
Sequence of UniProt Q9NYV4 (whole entry, looked up): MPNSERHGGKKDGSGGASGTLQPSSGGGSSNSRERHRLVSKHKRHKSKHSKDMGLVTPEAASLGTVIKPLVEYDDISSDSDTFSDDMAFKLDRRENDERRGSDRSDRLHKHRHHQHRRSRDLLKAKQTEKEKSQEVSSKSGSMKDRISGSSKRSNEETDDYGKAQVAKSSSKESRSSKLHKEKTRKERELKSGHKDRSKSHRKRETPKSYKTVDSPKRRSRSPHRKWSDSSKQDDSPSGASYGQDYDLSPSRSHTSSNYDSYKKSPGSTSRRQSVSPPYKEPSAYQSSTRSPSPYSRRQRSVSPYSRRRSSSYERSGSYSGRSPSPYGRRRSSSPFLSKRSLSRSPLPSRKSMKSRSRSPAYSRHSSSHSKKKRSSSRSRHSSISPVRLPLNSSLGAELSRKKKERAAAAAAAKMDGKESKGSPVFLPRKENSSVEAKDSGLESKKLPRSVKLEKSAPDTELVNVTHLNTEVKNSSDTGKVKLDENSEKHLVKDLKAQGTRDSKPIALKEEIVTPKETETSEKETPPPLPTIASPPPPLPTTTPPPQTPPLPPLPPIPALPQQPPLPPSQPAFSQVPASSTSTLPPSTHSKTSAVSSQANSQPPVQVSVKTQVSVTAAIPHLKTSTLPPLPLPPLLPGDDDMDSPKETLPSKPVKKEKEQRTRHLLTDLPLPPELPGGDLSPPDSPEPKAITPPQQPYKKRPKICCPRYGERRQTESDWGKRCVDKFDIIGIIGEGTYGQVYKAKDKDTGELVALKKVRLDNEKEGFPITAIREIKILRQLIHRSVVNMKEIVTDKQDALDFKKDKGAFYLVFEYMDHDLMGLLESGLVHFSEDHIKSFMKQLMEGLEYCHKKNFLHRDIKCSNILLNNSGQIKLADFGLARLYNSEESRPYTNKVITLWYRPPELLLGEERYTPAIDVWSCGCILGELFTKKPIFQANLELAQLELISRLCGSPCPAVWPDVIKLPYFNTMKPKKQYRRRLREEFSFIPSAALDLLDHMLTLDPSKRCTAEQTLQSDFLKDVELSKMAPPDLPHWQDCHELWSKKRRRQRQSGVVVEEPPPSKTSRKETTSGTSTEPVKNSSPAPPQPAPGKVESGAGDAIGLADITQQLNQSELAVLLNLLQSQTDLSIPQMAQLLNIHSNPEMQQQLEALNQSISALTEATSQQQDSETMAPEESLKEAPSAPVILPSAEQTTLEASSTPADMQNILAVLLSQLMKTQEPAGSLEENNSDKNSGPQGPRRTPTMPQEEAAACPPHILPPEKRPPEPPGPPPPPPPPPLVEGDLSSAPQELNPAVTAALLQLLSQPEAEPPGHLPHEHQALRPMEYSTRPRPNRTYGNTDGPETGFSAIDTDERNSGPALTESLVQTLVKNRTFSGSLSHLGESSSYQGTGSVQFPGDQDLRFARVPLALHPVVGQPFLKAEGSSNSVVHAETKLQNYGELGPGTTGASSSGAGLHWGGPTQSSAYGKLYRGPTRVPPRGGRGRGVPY
Read-out: kinase activity
Mode: inhibitor
Method: ADP-Glo
Concentration: 0.0003 µM
For `CCn1cnc2c(NCc3nc4ccc(F)c(F)c4[nH]3)nc(N3CCn4ncnc4C3)nc21`, the inhibition was 6.7%.
`CCn1cnc2c(NCc3nc4cc(Cl)c(Cl)cc4[nH]3)nc(N3CCN(c4ccccn4)CC3)nc21` gave an inhibition of 9.6%.
The inhibition of `CCn1cnc2c(NCc3nc4cc(Cl)c(Cl)cc4[nH]3)nc(N3CCN(C(=O)c4ccccc4)CC3)nc21` is reported as -9.3%.
The inhibition of `CCn1cnc2c(NCc3nc4cc(Cl)c(Cl)cc4[nH]3)nc(N3CCN(C(C)=O)CC3)nc21` is reported as 10.5%.
With `CC(=O)N1CCN(c2nc(NCc3nc4cc(Cl)c(Cl)cc4[nH]3)c3ncn(C)c3n2)CC1` the inhibition was -1.2%.
`CCn1cnc2c(NCc3nc4cc(F)c(F)cc4[nH]3)nc(N3CCn4ncnc4C3)nc21` gave an inhibition of 9.7%.
`CCn1cnc2c(NCc3nc4cc(Cl)c(Cl)cc4[nH]3)nc(N3CCN(C(=O)c4cccnc4)CC3)nc21` has an inhibition of -15.9%.
With `CCn1cnc2c(NCc3nc4cc(Cl)c(Cl)cc4[nH]3)nc(N3CCN(S(C)(=O)=O)CC3)nc21` the inhibition was -8.8%.
`CCn1cnc2c(NCc3nc4cc(Cl)c(Cl)cc4[nH]3)nc(N3CCN(C(=O)[C@H](C)NC(C)=O)CC3)nc21` gave an inhibition of -14.8%.
`CCn1cnc2c(NCc3nc4cc(Cl)c(Cl)cc4[nH]3)nc(N3CCN(C(=O)c4ccccn4)CC3)nc21` gave an inhibition of 1.5%.

Sample 7
SMILES: C[C@@H]1CN(c2ccc(-c3cc(C(=O)NCCOCCOCCOCCOCCNC(=O)Cn4cc(-c5[nH]cc(C(=O)N[C@@H](CC(N)=O)c6ccc(F)c(Cl)c6)c5-c5ccc(Cl)cc5F)cn4)ccc3F)cc2NC(=O)c2c[nH]c(=O)cc2C(F)(F)F)C[C@H](C)N1C
Read-out: thermal unfolding
Method: differential scanning fluorimetry
Concentration: 5.5 µM
Direction: higher = more unfolded
DCAF1: DDB1- and CUL4-associated factor 1 (DCAF1, Homo sapiens, UniProt Q9Y4B6)
Sequence of UniProt Q9Y4B6 (whole entry, looked up): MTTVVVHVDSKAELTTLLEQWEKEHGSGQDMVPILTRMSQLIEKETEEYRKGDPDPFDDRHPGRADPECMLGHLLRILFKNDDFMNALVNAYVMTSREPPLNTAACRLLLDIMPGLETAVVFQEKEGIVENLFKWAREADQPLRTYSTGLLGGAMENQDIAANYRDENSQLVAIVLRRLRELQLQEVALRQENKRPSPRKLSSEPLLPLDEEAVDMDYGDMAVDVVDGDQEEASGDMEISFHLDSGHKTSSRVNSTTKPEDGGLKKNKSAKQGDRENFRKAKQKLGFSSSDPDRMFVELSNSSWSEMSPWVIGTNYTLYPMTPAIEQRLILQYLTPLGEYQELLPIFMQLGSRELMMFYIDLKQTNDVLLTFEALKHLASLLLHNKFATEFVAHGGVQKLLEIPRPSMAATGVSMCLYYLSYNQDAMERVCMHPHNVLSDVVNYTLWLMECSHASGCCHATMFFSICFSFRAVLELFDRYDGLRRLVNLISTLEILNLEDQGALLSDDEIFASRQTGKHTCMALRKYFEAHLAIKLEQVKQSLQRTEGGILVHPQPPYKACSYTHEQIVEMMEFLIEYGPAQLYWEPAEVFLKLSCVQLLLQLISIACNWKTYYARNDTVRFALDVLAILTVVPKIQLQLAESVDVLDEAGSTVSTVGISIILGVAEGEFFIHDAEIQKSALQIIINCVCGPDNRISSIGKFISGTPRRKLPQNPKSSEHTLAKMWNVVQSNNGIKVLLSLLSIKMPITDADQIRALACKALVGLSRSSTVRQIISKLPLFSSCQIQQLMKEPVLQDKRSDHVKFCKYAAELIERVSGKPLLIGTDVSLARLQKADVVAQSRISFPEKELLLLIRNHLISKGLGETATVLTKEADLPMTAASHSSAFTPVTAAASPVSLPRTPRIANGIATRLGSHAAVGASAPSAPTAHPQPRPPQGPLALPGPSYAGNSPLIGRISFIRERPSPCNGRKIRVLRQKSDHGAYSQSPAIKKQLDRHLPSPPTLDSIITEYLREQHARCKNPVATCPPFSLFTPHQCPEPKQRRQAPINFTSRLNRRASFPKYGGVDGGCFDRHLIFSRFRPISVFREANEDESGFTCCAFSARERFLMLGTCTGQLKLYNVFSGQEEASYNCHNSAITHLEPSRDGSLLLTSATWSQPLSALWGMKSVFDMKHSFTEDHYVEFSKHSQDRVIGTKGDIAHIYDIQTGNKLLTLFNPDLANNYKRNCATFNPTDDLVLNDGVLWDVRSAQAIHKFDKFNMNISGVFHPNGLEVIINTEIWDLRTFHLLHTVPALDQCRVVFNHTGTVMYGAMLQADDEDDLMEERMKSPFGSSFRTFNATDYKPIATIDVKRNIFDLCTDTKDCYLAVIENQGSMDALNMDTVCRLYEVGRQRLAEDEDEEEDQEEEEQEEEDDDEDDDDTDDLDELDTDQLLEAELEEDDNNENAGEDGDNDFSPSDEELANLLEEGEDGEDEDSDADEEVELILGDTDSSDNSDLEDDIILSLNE
WDR5: WD repeat-containing protein 5 (WDR5, Homo sapiens, UniProt P61964)
The “SYPRO Orange fluorescence” was 56500 a.u. (DCAF1; 65.81 °C).
It gave 8240 a.u. for “SYPRO Orange fluorescence” (DCAF1; 32 °C).
WDR5; 62.01 °C — “SYPRO Orange fluorescence”: 9250 a.u.
It gave 46000 a.u. for “SYPRO Orange fluorescence” (DCAF1; 61.61 °C).
It gave 38900 a.u. for “SYPRO Orange fluorescence” (WDR5; 84.81 °C).
The “SYPRO Orange fluorescence” was 14800 a.u. (WDR5; 28.6 °C).
For DCAF1; 36.2 °C: “SYPRO Orange fluorescence” read 9250 a.u.

Repeated from above (sample 4):
The inhibition was 100% (cell-free assay, inhibitor, TR-FRET; 0.3333 µM).
It gave 96.2% for inhibition (cell-free assay, inhibitor, TR-FRET; 37.04 nM).
0.000152 µM — inhibition: -4.59%.
For cell-free assay, inhibitor, TR-FRET; 152 pM: inhibition read -4.42%.
The inhibition was 89.2% (cell-free assay, inhibitor, TR-FRET; 12.35 nM).
It gave 0.4% for inhibition (cell-free assay, inhibitor, TR-FRET; 460 pM).
For 0.3333 µM: inhibition read 98.8%.
1 µM — inhibition: 99.4%.
For cell-free assay, inhibitor, TR-FRET; 4.12 nM: inhibition read 58.1%.
The inhibition was 89.7% (0.01235 µM).
5.1e-05 µM — inhibition: -6.97%.
The inhibition was -5.08% (cell-free assay, inhibitor, TR-FRET; 51 pM).
For 0.1111 µM: inhibition read 98.7%.
